Published values collected from several papers.
Each numbered part is a random draw from the data of one study; scales do not carry over between parts.

Series 1 — method: RNAcompete; form: RNA; sample: in vitro; concentration: 20 nM; setting: 7-mer, probes averaged, single round; relative to: mean of 7-mers; reading: higher = stronger binding
Target: PABPC1L2, full length, GST fusion (mouse, UniProt A0ABA7IW68)
Construct (chain): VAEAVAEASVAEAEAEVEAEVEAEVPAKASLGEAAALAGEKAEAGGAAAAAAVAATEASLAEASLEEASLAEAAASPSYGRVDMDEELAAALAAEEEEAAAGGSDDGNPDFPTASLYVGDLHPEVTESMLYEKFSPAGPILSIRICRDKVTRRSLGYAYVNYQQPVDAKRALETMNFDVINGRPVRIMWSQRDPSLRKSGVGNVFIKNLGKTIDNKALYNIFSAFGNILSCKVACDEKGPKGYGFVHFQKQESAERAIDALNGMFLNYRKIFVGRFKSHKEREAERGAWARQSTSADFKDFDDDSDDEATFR
Sequence | 7-mer Z-score
CCCGUUA | -0.362
GCAAGUU | -0.153
CACCAGC | -0.28
AACUUCA | 0.00436
UGACGUA | -0.206

Series 2 — method: protein-binding microarray; form: double-stranded DNA, one strand shown; sample: in vitro; concentration: 940 nM top; setting: 60-bp whole probe; added: salmon DNA 0.4 mg/ml; relative to: random background probes; reading: higher = stronger binding; all sequences stand within: GCCTAGCAC … GTCTTGATTCGCTTGACGCTGCTG
Target: Interferon regulatory factor 5, full length, phosphomimetic (IRF5, Homo sapiens, UniProt Q13568-2, residues 1-514, S451D/S453D/S456D/S462D)
Sequence | fitted relative affinity
TTAGAACTGTGGTATCGATTAGTGCTA | 3.58 z-score
TTAGGTCTCGGACTGGGTTCGTGCTAG | 0.987 z-score
GAAGGTTTCCTTTTCCTGACGTGCTAG | 1.6 z-score
GTCGGTCTCCTTATCCTGACGTGCTAG | 1.38 z-score
TCACCTTTGCCTCTGAGACTGTGCTAG | 0.221 z-score
TCAGCTTTCCAATTCTCACTGTGCTAG | 0.85 z-score

Series 3 — method: protein binding microarray; form: double-stranded DNA, one strand shown; sample: in vitro; concentration: not given; relative to: not given; reading: higher = stronger binding
Target: Histone acetyltransferase KAT6A, winged helix 2, GST fusion (KAT6A, Homo sapiens, UniProt Q92794, residues 85-181)
Setting: 8-mer, flanks averaged, mean of 2 arrays, mostly near background
Residues (chain): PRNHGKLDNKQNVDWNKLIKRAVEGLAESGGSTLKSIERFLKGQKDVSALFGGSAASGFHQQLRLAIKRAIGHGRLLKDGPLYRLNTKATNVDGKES
Sequence | E-score
GAATGATA | 0.0113
TGCGATAA | -0.00965
AGGGATGC | -0.197
GATTCCTA | -0.0659
GCGACACC | 0.0312
AACTCAAG | -0.0338
ACGGCGTC | 0.0856

Other studies, line by line
Molecule | target | assay | system | setting | how to read | endpoint | value
PhoQ, residues 284 288 289 292 302 303 TNASYF | PhoP, residues 12 14 15 18 19 SQCLL (Escherichia coli, UniProt P23836) | Sort-seq, item: YFP reporter | E. coli | PhoQ-PhoP variant library, added: 10 µM Mg2+ | relative to: high Mg2+ state, higher = stronger signaling | fold induction | 8.1
